Published values collected from several papers.
Every numbered part comes from another study and shows a few of its results, in no order.
UniProt Q9Y2H1, sequence (whole entry, looked up): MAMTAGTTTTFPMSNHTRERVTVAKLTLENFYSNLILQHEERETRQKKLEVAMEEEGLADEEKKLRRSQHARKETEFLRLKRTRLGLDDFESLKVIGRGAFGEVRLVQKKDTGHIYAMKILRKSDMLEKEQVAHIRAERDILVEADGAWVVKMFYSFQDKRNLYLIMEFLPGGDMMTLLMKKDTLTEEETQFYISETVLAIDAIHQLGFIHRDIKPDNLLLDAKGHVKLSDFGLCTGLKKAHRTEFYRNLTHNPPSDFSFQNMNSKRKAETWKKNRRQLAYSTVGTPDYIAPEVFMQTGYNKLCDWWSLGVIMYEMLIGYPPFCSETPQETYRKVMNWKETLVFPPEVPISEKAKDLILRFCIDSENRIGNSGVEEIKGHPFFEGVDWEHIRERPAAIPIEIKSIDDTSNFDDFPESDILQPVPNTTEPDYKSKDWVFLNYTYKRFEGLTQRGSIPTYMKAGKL
UniProt Q9UIK4, sequence (whole entry, looked up): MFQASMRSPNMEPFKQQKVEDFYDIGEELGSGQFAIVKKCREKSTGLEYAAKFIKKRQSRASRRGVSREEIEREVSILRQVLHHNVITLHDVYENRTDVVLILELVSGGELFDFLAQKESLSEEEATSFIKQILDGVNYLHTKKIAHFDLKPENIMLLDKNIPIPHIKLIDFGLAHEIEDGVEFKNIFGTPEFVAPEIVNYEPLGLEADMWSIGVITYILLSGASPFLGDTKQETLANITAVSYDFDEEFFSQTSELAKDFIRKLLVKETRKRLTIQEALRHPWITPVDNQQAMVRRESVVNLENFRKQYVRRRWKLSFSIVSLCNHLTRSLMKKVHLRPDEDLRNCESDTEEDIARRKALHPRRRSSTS
UniProt Q00535, sequence (whole entry, looked up): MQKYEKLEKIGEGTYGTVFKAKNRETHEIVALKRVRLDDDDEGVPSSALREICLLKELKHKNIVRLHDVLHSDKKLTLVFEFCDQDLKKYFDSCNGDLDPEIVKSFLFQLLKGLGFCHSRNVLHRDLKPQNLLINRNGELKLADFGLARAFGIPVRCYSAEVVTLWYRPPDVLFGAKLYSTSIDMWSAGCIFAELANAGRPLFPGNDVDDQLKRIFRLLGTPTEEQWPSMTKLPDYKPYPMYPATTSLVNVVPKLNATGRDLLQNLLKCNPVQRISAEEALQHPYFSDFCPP
UniProt P42680, sequence (whole entry, looked up): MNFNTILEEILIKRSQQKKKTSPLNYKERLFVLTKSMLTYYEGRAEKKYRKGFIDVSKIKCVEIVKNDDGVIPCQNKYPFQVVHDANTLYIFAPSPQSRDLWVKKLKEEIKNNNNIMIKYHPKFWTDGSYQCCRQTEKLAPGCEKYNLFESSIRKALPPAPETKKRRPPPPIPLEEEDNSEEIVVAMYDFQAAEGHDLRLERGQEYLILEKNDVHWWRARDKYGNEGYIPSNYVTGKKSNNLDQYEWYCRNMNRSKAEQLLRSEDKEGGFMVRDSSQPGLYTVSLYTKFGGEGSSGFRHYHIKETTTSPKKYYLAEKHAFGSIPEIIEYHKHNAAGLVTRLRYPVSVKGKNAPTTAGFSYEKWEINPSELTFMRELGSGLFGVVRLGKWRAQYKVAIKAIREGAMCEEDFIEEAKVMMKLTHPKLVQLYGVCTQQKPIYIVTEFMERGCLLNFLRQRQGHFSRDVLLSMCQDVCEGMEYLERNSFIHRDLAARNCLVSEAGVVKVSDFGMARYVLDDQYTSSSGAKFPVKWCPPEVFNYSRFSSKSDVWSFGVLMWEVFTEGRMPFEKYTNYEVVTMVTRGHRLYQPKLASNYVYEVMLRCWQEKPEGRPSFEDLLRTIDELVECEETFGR
UniProt Q9P286, sequence (whole entry, looked up): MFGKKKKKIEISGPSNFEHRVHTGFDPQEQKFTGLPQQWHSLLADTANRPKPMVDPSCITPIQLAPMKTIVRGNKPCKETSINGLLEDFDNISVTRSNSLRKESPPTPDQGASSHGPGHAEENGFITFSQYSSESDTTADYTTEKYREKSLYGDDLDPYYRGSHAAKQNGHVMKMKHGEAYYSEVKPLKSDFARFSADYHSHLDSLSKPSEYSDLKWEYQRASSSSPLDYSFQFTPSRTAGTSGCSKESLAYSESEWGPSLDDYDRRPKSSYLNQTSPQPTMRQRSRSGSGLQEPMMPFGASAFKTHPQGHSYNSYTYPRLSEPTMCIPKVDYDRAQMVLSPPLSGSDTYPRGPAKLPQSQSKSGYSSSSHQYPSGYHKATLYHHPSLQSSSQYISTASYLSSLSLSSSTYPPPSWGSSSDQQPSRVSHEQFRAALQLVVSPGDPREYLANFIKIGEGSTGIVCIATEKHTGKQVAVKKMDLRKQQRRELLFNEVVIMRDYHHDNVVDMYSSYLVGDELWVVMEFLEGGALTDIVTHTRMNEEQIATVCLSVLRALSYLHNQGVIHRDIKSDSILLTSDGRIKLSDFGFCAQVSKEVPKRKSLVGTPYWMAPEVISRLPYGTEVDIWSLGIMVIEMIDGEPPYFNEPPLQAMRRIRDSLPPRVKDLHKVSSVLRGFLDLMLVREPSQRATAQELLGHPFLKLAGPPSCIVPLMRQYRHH
UniProt Q8TDR2, sequence (whole entry, looked up): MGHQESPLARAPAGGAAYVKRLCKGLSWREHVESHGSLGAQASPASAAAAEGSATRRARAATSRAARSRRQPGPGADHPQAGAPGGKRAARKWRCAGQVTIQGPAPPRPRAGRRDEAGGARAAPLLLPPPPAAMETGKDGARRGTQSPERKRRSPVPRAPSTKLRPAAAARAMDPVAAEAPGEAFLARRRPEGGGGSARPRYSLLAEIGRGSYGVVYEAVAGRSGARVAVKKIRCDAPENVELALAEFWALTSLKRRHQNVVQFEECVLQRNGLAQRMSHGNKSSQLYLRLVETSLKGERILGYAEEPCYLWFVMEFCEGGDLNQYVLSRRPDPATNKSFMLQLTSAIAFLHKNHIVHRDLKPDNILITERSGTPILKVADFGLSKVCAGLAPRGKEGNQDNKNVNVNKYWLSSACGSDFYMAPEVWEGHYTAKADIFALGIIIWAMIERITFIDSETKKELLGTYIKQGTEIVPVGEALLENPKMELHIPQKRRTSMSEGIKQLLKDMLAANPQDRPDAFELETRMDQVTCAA

Study 1
Organism: Sarcocystis neurona
Read-out: parasite growth
Tested at: 10 µM
Quantity: inhibition
CCC[C@@H]1C[C@@H](C(=O)N[C@@H]([C@H]2O[C@H](SC)[C@H](O)[C@@H](O)[C@H]2O)[C@@H](C)O)N(C)C1: 16%
CC(C)[N+]1(C)[C@@H]2CC[C@H]1CC(OC(=O)C(CO)c1ccccc1)C2.[Br-] (stereo partly drawn): -23.3%
NC(=O)N1c2ccccc2C=Cc2ccccc21: -27.5%
CCCc1nc(C)c2c(=O)[nH]c(-c3cc(S(=O)(=O)N4CCN(CC)CC4)ccc3OCC)nn12.O=C(O)CC(O)(CC(=O)O)C(=O)O: -31%
COc1cc(/C=C/c2ccc(O)cc2)cc(OC)c1: -103%
C/C(=C\C(=O)OCCCCCCCCC(=O)O)C[C@@H]1OC[C@H](C[C@@H]2O[C@H]2[C@@H](C)[C@H](C)O)[C@@H](O)[C@H]1O: 7.4%

Study 2
Cell line: A-375
Tested at: 100 µM
Time: 18 h
Quantity: viability
CC(C)Cn1cnc2c(N)nc3ccccc3c21: 90.7%
CN1CCC(=C2c3ccccc3CCc3cccnc32)CC1: 85.8%
OCc1ccc(O[C@@H]2O[C@H](CO)[C@@H](O)[C@H](O)[C@H]2O)cc1: 104%
NCCCC[C@H](NC(=O)[C@@H]1CCCN1C(=O)[C@@H]1CSSC[C@H](N)C(=O)N[C@@H](Cc2ccccc2)C(=O)N[C@@H](Cc2ccccc2)C(=O)N[C@@H](CCC(N)=O)C(=O)N[C@@H](CC(N)=O)C(=O)N1)C(=O)NCC(N)=O: 89.3%
CCOC(=O)[C@H](CCc1ccccc1)N[C@@H](C)C(=O)N1CCC[C@H]1C(=O)O: 102%
CC(C)N1CCN(c2ccc(OC[C@H]3CO[C@](Cn4cncn4)(c4ccc(Cl)cc4Cl)O3)cc2)CC1 (racemic): 10.1%
Cc1ccc(N(CC2=NCCN2)c2cccc(O)c2)cc1: 65.4%

Study 3
Structure (SMILES): COc1cc(-c2cn(C3CCc4ccccc4N(CC(F)(F)F)C3=O)nn2)ccc1-n1ccc(C)n1 (stereo not drawn)
Technique: competition with immobilised ligand
Tested at: 1 µM
Quantity: remaining binding
Cyclin-dependent kinase 5 (CDK5, Homo sapiens, UniProt Q00535); cell-free assay: 100%
Serine/threonine-protein kinase 35 (STK35, Homo sapiens, UniProt Q8TDR2); cell-free assay: 100%
Tyrosine-protein kinase Tec (TEC, Homo sapiens, UniProt P42680); binding: 100%
Serine/threonine-protein kinase PAK 5 (PAK5, Homo sapiens, UniProt Q9P286); cell-free assay: 96%
Death-associated protein kinase 2 (DAPK2, Homo sapiens, UniProt Q9UIK4); cell-free assay: 100%
Serine/threonine-protein kinase 38-like (STK38L, Homo sapiens, UniProt Q9Y2H1); binding: 75%

Study 4
Target: Ephrin type-A receptor 8 (EPHA8, Homo sapiens, UniProt P29322)
UniProt P29322, sequence (whole entry, looked up): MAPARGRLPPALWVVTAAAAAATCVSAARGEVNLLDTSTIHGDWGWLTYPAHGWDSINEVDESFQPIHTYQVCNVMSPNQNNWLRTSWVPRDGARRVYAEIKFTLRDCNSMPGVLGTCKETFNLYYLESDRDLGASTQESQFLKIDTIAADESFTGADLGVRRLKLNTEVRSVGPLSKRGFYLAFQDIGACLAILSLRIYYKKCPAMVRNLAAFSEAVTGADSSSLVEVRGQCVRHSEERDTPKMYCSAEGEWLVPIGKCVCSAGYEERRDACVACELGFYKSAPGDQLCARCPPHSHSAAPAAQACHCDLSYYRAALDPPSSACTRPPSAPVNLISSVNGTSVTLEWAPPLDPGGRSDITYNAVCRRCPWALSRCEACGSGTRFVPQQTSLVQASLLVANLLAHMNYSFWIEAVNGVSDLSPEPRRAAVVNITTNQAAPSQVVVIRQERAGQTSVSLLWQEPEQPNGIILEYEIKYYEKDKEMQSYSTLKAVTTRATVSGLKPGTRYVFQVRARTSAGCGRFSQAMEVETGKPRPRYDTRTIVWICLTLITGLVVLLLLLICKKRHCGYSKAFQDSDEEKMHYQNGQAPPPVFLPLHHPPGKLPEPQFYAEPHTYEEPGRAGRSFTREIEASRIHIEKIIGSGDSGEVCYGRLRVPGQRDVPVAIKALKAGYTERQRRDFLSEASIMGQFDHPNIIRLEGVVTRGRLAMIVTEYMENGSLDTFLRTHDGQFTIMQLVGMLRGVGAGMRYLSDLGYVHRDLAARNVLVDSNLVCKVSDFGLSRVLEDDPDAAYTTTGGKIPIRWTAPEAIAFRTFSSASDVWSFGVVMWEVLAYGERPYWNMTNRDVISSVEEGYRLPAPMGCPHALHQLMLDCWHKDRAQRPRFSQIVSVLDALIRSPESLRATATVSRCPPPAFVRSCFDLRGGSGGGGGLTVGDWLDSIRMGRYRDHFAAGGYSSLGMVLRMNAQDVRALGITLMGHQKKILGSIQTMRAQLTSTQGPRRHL
Read-out: enzyme activity
Action: inhibitor
Tested at: 0.5 µM
Reference: control
Quantity: remaining activity
COc1cc2ncnc(Nc3ccc(F)c(Cl)c3)c2cc1OCCCN1CCOCC1: 84.5%
Cn1sc(=O)n(Cc2ccccc2)c1=O: 94.4%
COc1ccc(CNC(=O)Nc2ncc([N+](=O)[O-])s2)cc1: 109%
Nc1ncnc2n[nH]c(Nc3ccc(F)cc3)c12: 94%
O=C1NC(=O)C(c2cn(CCCn3ccnc3)c3ccccc23)=C1Nc1ccccc1: 104%
Cn1c2ccccc2c2c3c(c4c5ccccc5n(CCC#N)c4c21)CNC3=O: 91.7%
COc1ccc(C(=O)Nc2sc3c(c2C(N)=O)CCCC3)cc1OC: 114%
O=c1c2ccccc2[nH]c(=S)n1CCN1CCC(=C(c2ccc(F)cc2)c2ccc(F)cc2)CC1: 102%
O=C1NC(=O)C(c2cn(CCCO)c3ncccc23)=C1c1cnccn1: 86.9%
Oc1ccc(-c2nc(-c3ccncc3)c(-c3ccc(F)cc3)[nH]2)cc1: 93.6%
CC(C)[C@H](CO)Nc1nc(Nc2cc(N)cc(Cl)c2)c2ncn(C(C)C)c2n1: 92.5%
Nc1[nH]nc2nc3ccccc3nc12: 104%
CN(C)c1ccc(C=C2C(=O)Nc3ccccc32)cc1: 103%
COc1cc2nccc(Oc3ccc(NC(=S)NC(=O)c4ccccc4C)cc3)c2cc1OC: 84.1%
CCOC(=O)c1c(C)[nH]c(/C=C2\C(=O)Nc3ccccc32)c1C: 88.7%
C#Cc1cccc(Nc2ncnc3cc(OCCOC)c(OCCOC)cc23)c1: 89.7%

Other studies, line by line
CNC(=O)c1ccc(-c2cnn3ccc(C(=O)N(CC(=O)O)c4ccc(Cl)cc4)cc23)cc1
plasma concentration (C57BL/6 IFN-γ knockout mouse, female, plasma; oral, 10 mg/kg, 4 h): 11 nM

Excerpt of the above (study 1):
CCC[C@@H]1C[C@@H](C(=O)N[C@@H]([C@H]2O[C@H](SC)[C@H](O)[C@@H](O)[C@H]2O)[C@@H](C)O)N(C)C1: 16%
COc1cc(/C=C/c2ccc(O)cc2)cc(OC)c1: -103%
C/C(=C\C(=O)OCCCCCCCCC(=O)O)C[C@@H]1OC[C@H](C[C@@H]2O[C@H]2[C@@H](C)[C@H](C)O)[C@@H](O)[C@H]1O: 7.4%
NC(=O)N1c2ccccc2C=Cc2ccccc21: -27.5%
CCCc1nc(C)c2c(=O)[nH]c(-c3cc(S(=O)(=O)N4CCN(CC)CC4)ccc3OCC)nn12.O=C(O)CC(O)(CC(=O)O)C(=O)O: -31%
CC(C)[N+]1(C)[C@@H]2CC[C@H]1CC(OC(=O)C(CO)c1ccccc1)C2.[Br-] (stereo partly drawn): -23.3%
